Experimental data of several laboratories.
± gives the spread as reported.

Compound | test system | conditions | AUC(0-t)
Cc1ccc(/C=C/C(=O)O)cc1-c1cc2c(cc1C)C(C)(C)CCC2(C)C | rat Sprague-Dawley male, plasma | oral, 100 mg/kg, sesame oil | 24700 ng·h/mL
CC[C@H](C)C(=O)N1CCC(NC(=O)Nc2ccc(OC(F)(F)F)c(F)c2)CC1 | human, plasma | oral, 24 mg, single dose, healthy volunteers | 9030 ng·h/mL
COc1ccc(F)cc1S(=O)(=O)Nc1cnc2c(c1)C(=O)NCCO2 | C57BL/6J mice, plasma | oral, 3 mg/kg | 1050 ± 350 ng‧h/mL
O=c1cc(-c2ccccc2)oc2c(Br)c(O)c(O)c(O)c12 | C57BL/6 mouse, plasma | oral, 150 mg/kg, single dose | 7650 ng·h/mL
O=C(CN1CCN(c2cc3c(cc2F)c(=O)c(C(=O)O)cn3C2CC2)CC1)Nc1ccc(Cl)cc1 | BALB/c mice, female, plasma | iv, 1.25 mg/kg | 88200 ng·h/mL
O=P1(NCCCl)NCCCO1 (stereo not drawn) | rat, plasma | intravenous, 10 mg/kg, added: ketoconazole 20 mg/kg oral 50 min before | 518 ± 167 ng·h/mL
CCOC(=O)[C@@H]1Cc2c(cc([N+](=O)[O-])cc2[N+](=O)[O-])[C@H](O)[C@]12C(=O)Nc1ccc(Br)cc12 | rat | iv, 7.5 mg/kg | 21100 ng·h/mL
CSCC[C@H](NC(=O)CNC(=O)[C@H](CC(=O)O)NC(=O)[C@@H](NC(=O)[C@@H](NC(=O)[C@@H](NC(=O)CNC(=O)[C@H](CCC(N)=O)NC(=O)[C@H](CCSC)NC(=O)[C@H](CC(=O)O)NC(=O)[C@H](C)NC(=O)[C@H](C)NC(=O)[C@@H](NC(=O)[C@H](CO)NC(=O)[C@@H](N)CC(C)C)[C@@H](C)O)C(C)C)C(C)C)[C@@H](C)O)C(=O)N[C@@H](C)C(=O)N[C@@H](CO)C(=O)NCC(=O)N[C@@H](CC(C)C)C(=O)N[C@@H](CC(=O)O)C(=O)N[C@@H](CCCCN)C(=O)N[C@@H](CC(=O)O)C(=O)N[C@@H](Cc1ccc(O)cc1)C(=O)N[C@@H](CC(C)C)C(=O)N[C@@H](CCCCN)C(=O)N1CCC[C@H]1C(=O)N[C@@H](CC(=O)O)C(=O)N[C@@H](CC(=O)O)C(=O)O | human, serum | intravenous, 0.83 mg/kg, patients, infusion | 240 ng·h/mL
C[C@@H]1CC[C@H]2[C@@H](C)CO[C@@H]3O[C@@]4(C)CC[C@@H]1[C@]32OO4 | male Sprague-Dawley rat, plasma | oral, 100 mg/kg | 3010 ng·h/mL
